Published values gathered from unrelated publications.
Parts stem from different laboratories: compare values within a part only.

Study 1
Target: Sal-like protein 4, full length isoform A (SALL4, Homo sapiens, UniProt Q9UJQ4, residues 1-1053)
Sequence of UniProt Q9UJQ4 (whole entry, looked up): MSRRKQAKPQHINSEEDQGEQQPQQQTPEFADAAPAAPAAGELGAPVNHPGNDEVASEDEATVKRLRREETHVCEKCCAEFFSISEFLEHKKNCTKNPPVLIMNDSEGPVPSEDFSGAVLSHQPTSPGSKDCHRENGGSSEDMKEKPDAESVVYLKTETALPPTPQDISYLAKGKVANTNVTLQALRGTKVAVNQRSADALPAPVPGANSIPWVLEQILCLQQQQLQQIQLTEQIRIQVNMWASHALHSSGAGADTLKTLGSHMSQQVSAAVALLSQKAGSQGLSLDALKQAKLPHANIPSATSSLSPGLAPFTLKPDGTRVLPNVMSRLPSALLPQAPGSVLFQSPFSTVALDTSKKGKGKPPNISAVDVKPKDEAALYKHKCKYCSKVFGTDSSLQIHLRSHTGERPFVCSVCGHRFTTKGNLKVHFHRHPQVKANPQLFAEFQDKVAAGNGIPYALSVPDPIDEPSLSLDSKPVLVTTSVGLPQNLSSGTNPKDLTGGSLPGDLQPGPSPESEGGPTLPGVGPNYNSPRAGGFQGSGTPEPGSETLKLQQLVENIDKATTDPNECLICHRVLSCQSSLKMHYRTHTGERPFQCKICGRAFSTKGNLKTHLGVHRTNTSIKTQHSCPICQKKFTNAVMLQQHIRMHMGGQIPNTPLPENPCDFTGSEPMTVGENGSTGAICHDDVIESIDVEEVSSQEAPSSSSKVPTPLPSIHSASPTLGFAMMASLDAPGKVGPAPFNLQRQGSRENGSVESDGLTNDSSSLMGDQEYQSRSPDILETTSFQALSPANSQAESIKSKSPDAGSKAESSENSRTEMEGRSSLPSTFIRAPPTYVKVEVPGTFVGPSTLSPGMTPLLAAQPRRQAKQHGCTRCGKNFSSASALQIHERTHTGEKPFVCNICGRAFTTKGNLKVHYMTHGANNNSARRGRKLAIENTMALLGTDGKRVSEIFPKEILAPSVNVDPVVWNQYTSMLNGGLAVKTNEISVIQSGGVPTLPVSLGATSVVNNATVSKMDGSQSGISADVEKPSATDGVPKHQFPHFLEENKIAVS
Method: universal PBM
Form: double-stranded DNA, one strand shown
Matrix: in vitro
Concentration: 600 nM
Notes: 8-mer, flanks averaged, mean of replicates
Reading: higher = stronger binding
Endpoint: E-score
CGTCCCAC: -0.164
ATTCCCTG: 0.0146
ATTGCTCA: 0.133
ATTCATGA: 0.157
ACGCTCGA: -0.112
ACGTGTTC: -0.0364
TATGAGAA: 0.307
GGGCTATA: 0.0084
ACTAAGCT: -0.0217
CCGCGCCA: -0.259
AACCAGTA: 0.0529
AATCAATC: 0.174
CCTTTATC: 0.103
ACGTAAAA: 0.254
AAGCGAAG: 0.00789
CGACACAC: 0.152
GTGTCGCA: -0.179
CAGGGGTC: -0.256
AAGCAGGA: -0.0166
ATCAAGCC: -0.0541

Study 2
Target: Interferon regulatory factor 7, full length, phosphomimetic (IRF7, Homo sapiens, UniProt Q92985, residues 1-503, S101K/S471D/S472D/S475D/S476D/S477D/S483D/S484D/S487D)
Method: protein-binding microarray
Form: double-stranded DNA, one strand shown
Matrix: in vitro
Concentration: 250 nM
Notes: 60-bp whole probe
With: salmon DNA 0.4 mg/ml
Baseline: random background probes
Reading: higher = stronger binding
Endpoint: log fluorescence
Constant ends, left off below: GCCTAGCAC … GTCTTGATTCGCTTGACGCTGCTG
Target sequence (chain): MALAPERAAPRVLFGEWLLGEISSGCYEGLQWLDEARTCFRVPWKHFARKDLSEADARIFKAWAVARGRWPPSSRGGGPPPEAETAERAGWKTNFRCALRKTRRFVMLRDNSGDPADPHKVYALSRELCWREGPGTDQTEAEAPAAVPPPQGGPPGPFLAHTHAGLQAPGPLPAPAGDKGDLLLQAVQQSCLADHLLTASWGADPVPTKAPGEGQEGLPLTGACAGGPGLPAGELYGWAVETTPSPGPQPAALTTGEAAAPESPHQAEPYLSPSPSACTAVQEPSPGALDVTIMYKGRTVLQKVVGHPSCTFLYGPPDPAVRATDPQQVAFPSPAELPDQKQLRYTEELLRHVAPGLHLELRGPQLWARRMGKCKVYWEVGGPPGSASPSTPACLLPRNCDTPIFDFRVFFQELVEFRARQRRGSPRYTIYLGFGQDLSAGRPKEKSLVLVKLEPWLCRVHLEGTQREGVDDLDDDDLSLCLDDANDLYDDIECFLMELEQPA
GACGGCTTCGACTATCGGGACGTGCTA: -0.7 z-score
TCACTTTTTTTAATTGAACTGTGCTAG: 0.484 z-score
TTAGGTTCCGGTTTCGGCTAGTGCTAG: 7.81 z-score
TCATGTTTGGTCCTGATACTGTGCTAG: 0.586 z-score
GACGACCTGAGTCTCGAGACGTGCTAG: 0.344 z-score
TGAGATTTCGGGTTTCGATTAGTGCTA: 7.71 z-score
TCAACCATCATCCTCACACTGTGCTAG: 0.243 z-score
TTAGGTACCGACTATCGGTTAGTGCTA: 0.379 z-score
TCAAATTTTAGTAACACACTGTGCTAG: -0.0516 z-score
TTAGGTTTCCTTATCCTTTCGTGCTAG: 2.76 z-score
GCCGGTCTCCTACTGCTGACGTGCTAG: -0.206 z-score
GACGGTATCGGATTCGGGACGTGCTAG: 2.25 z-score
TTATAACTGGGGACTGGATTAGTGCTA: 0.149 z-score
TCAAAACTCACTCATGGCACTGTGCTA: -0.541 z-score
TTTGGTCTCGGTATCGGTTAGTGCTAG: 3.89 z-score
CTAGGTATCCTACTGCTTTAGTGCTAG: 0.0463 z-score
GCCGGTTTCGGTTCCGGGACGTGCTAG: 12.9 z-score
TTAGGTTCCCTTTGCCTTTAGTGCTAG: 3.14 z-score
TTAGATTTCAGGTCCGATTAGTGCTAG: 0.734 z-score

Single results of other studies
LQVDDDSGDPLNLVKA — enrichment score (human cyclin B1-Cln2 fusion; yeast growth, competitive growth deep sequencing; peptide, Saccharomyces cerevisiae; peptide tiling library; direction not given): -0.105
PhoQ, residues 284 288 289 292 302 303 TSTLRA — fold induction (PhoP, residues 12 14 15 18 19 SYFRT (Escherichia coli, UniProt P23836); Sort-seq, refers to: YFP reporter; E. coli; PhoQ-PhoP variant library, with: 10 µM Mg2+; baseline: high Mg2+ state, higher = stronger signaling): 9.54
GSALKKLFTSTGL — enrichment score (human cyclin A2; peptide binding, competitive growth sequencing; peptide, Saccharomyces cerevisiae, cyclin A2-Cln2 fusion strain; mutational scanning library 1; direction not given): -0.559
RRRRLLFWDKETQI — enrichment score (Saccharomyces cerevisiae; mating pheromone growth arrest, pooled competitive growth deep sequencing; peptide, no Cln2 overexpression; peptide tiling library; direction not given): -0.145

For quick reference, copied from above (study 2):
TCAAATTTTAGTAACACACTGTGCTAG: -0.0516 z-score
TCAAAACTCACTCATGGCACTGTGCTA: -0.541 z-score
TTAGGTACCGACTATCGGTTAGTGCTA: 0.379 z-score
TTAGATTTCAGGTCCGATTAGTGCTAG: 0.734 z-score
TCACTTTTTTTAATTGAACTGTGCTAG: 0.484 z-score
